Published values pooled from the literature.
Numbered parts are unrelated; each lists some results of a single study.

Sample 1
Target: Phosphate system positive regulatory protein PHO4, full length, GST-tagged (PHO4, Saccharomyces cerevisiae, UniProt P07270, residues 1-312)
Technique: competition protein-binding microarray
Molecule type: double-stranded DNA, one strand shown
Medium: in vitro
Tested at: 2 µM
Setting: whole 60-bp probe, lowest competitor level
With: Cbf1 competitor, 0.05 µM
Reading: higher = stronger binding
Measurement: fluorescence intensity
All sequences stand within: … GTCTTGATTCGCTTGACGCTGCTG
Target sequence (chain): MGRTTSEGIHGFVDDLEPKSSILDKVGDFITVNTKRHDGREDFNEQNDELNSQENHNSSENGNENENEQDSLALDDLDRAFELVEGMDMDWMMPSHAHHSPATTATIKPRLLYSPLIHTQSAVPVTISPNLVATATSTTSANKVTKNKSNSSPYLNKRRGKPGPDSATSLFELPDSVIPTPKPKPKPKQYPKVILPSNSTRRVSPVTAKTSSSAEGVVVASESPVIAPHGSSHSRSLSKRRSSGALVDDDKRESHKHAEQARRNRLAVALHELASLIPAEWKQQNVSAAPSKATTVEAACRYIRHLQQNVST
TAGCGTCCAAGGACGCCCGTGGCCGAGGGAGCACCA: 7420 a.u.
AAATTACTAAGTTGTCACCCTACTTACCCCGTATGA: 3620 a.u.
CAACGATATCTTTATCAGGTGATTCTTACGCGCCAG: 3210 a.u.
TTCTGCATCCAATATCACCTGACGTTCATCTTTATG: 4040 a.u.
CGGGGTTAAGTTTGGGGTGTGGGTGGCTTGCAGCAG: 5790 a.u.
TCCTGGGCGGCTTAAAACGTGAGGAAAATTGTACTG: 10000 a.u.
ACTGCAAGCGACTATCATGTGATACGATAGCCGGGT: 6930 a.u.
CTAACGAAGGTTTGACTTGTGGGTGACAAGCCAAGT: 4120 a.u.
TAAGATTCGCTCAAACACATGCTCTTTCCAACGCTG: 10700 a.u.
AATCACAGATTGTTAGCCTGATGTATACAGTAAATT: 3360 a.u.
AAAGCGGTAATTTGCGCGGTGGGTGCAGATATCTAT: 4380 a.u.
ATAGTGGGCAGACTCCACGTGCAAATGACAGCCAGG: 16000 a.u.
CATACCCAACCTTGTCACGTGGGTGAAGATATTTGT: 20600 a.u.
AGGAAACAATTGGTGAGCATGACAAACTTGTTTGGC: 4560 a.u.
TGCGCAACAACTTGAAAAGTGGGTGTATGTCTAGAA: 4100 a.u.
GAATCAAAGGGTTTATCCGTGTCTGAACGCAATGTG: 4770 a.u.
ATCGTTTTGTTGACCAGCATGATAAATTCTGGAGCC: 4320 a.u.

Sample 2
Target: RNA binding protein fox-1 homolog 2, RRM domain, GST-SBP tag (RBFOX2, Homo sapiens, UniProt O43251-10, residues 100-194)
Technique: RNA Bind-n-Seq
Molecule type: RNA
Medium: in vitro
Tested at: 365 nM
Setting: natural RNA segment, single round, ends assumed
Relative to: no-protein control
Reading: higher = stronger binding
Measurement: RBNS enrichment (R)
All sequences stand within: GGGAGUUCUACAGUCCGACGAUC … UGGAAUUCUCGGGUGCCAA
Residues (chain): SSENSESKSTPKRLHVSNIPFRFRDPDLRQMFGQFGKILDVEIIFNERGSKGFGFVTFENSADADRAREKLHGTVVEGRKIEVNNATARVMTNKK
CCCUCUUCUGAAACAGGAUGUGCACACAUGGGCCAUAGCCCUAAGGACUCCUGCCAGACCACACAGCCCACACCUGGCCCUGUUCACGGCUGUUCCACCCACCCCUCUUU: 0.496
CGCAUCCUGAGGCUCUCACUGACCGAGCAGUACGCCCCCUGCCGGGACCCUCGCCAGCGCCACGCGCGCCACGCCCAGGGCCAGGAGCCAGACAAACCCCGGCCUGCGCG: 0.485
AAACCACAGAACAGUUUGUGAUUUCUAUUGCUGUAGCUAGGUAUCUUACUCUGUCCACUCUUGUUCAAGUAUCUAACUCUUCUGGAAACCAAAUAGGCUUUAGAAGAGAU: 0.376
CUUAUCAAAAUACAGAUCAUUAUUGCAUAUAUGCAAAUUCUGUUUUAUUUUAUCCCUAAUAACAGAAGUCUCCCUUCCAUGGUUUUAGCGUUGCCUUUUUAAAAAGGCAC: 0.491
AACAGGACAAUCAAUUUAAGACAACAGAAAUAGAGAUUGUUAAAUAAAACCAUUAGUAUUUUACUUUGACUCAGUACCUUGGUUUGUCCCAACUGAAUAAGAGUUUGUAU: 0.526
CCUGGGCAUACGCCGCCUCCAGCUGCUCAUAACCACCGAUCUGGUUGAAAGCUGGAGGGUGGGGCAGAGUGGGUUGGUUCUGGGUGGUCCUGACUCCCAGGAUCCUCCUA: 0.254
CACAGACUUCCCUAGUGUUUGUACUACACGUAGUCAGAAGCGAGUGUCCUUUUCUUUUGCUUCAGGCUAAGAGCUGCCUCGCUCUUUGUCCCCCCAUUAGGAUUCUAUUA: 0.209
CUUUGCUAACCUCAGCAGUUACUUUGUUUCUUUUGUUUAGAAAAGUGAUUGCAAUCCGUGUAUUUUGACCAAAGUUCUCUAUUUUUCCUUGACUAAAACAAGAUAAUGAG: 0.442
GGCACGUUACCAUGGAAGCCGCUCCAGGGUGGGUCAGGGUGCAAGCUGCUGGUGAGGUUUGGAAGCAUCAGGCUCACGGGUGUUCAUGUGUGUUCGUGCGUGUGUGUGCG: 0.558
GGUCCUGUGGACAUCUUGCAUUUUGGGCACUGCUAGGGGGUCUGGGCUGCUUGGAAGGAGCCAUGGCCUAGGGUUCAGGGAACUAGACUCUAUCCCAGUUGGGUUCAGAC: 2
UCUGACUACUGUGCUAAGGUGUGUAUAAUGAACAUGGUAAUUCUAACCAGCUUUUUAAAAAUAUGUAGCGCUUGUCAUGAGAGGUACUGGGGAAAAGAAUGUGCAGUAGA: 3.51
GCCCGUGUGUACAGUCUGUGGAGUUUAGCUUAACGGGCAGGGCCCACAUGUACAGUGUCUGUAUAUAAAUGUGCUGUAUCUGUUCAUUUCUAUGACUGCAGGGUUUUUUU: 0.405

Sample 3
Target: Hepatocyte nuclear factor 3-beta, forkhead domain (FOXA2, Homo sapiens, UniProt Q9Y261, residues 142-269)
Technique: protein-binding microarray
Molecule type: double-stranded DNA, one strand shown
Medium: in vitro
Tested at: not given
Setting: k-mer, scored over probes, only values ≥0.25
Reading: higher = stronger binding
Measurement: E-score
Construct (chain): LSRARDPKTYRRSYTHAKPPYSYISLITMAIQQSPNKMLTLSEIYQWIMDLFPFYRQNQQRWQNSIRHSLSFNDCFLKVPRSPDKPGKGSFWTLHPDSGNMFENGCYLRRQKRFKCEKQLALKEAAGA
ATCTGTTA: 0.257
ATCTAACA: 0.312
ATATTACA: 0.318
ATGTACAC: 0.342
AGTACATA: 0.297
AGTTAACA: 0.262
GTTTACAA: 0.252
GTTAATTA: 0.301
ATTGTTGA: 0.354
ATAACTAA: 0.274
TATGCACA: 0.331
AGACAACT: 0.27
AATATGCT: 0.307
ATATTAAT: 0.265
ACTACTAT: 0.323
TGTAAACA: 0.462
AACTCACA: 0.256
TATAGATA: 0.311
TTACCGAA: 0.263
AAGTAAAT: 0.342
CACGGATA: 0.286
ATATATCA: 0.369
ATAGATAA: 0.297
AATACTGA: 0.258
TACACACA: 0.428

Sample 4
Target: Sal-like protein 4, full length isoform B (SALL4, Homo sapiens, UniProt Q9UJQ4-2, residues 1-616)
Technique: universal PBM
Molecule type: double-stranded DNA, one strand shown
Medium: in vitro
Tested at: not given
Setting: 8-mer, flanks averaged, mean of replicates
Reading: higher = stronger binding
Measurement: E-score
AGGGTTGG: -0.0691
ACGCGGTC: -0.173
GACCTCGA: -0.142
GACCCCCC: -0.349
ACACAAAT: 0.257
ACGAGACA: -0.0954
GCAAACCA: 0.0503
GGATGTAA: 0.12
CCGGGTGC: -0.42
AGATATCC: 0.169
AATTTGCA: 0.139
ATAAATTG: 0.395
AATTTTCC: 0.148
GATACCGA: -0.0462
ACGGGGAA: -0.0403
AAACCTTG: -0.0648
GCCCCCAC: -0.228
CAGAGTAA: -0.0157
AATCAAAA: 0.296
CGCGGGGA: -0.376
AAGCGCGA: -0.118
ACCCCGGC: -0.293
AGTATACT: 0.139
CTTTTGTC: 0.0798
GCTGCTGA: -0.252

Sample 5
Target: Histone acetyltransferase KAT6A, winged helix 1, GST fusion (KAT6A, Homo sapiens, UniProt Q92794, residues 1-85)
Technique: protein binding microarray
Molecule type: double-stranded DNA, one strand shown
Medium: in vitro
Tested at: not given
Setting: 8-mer, flanks averaged, mean of 2 arrays, mostly near background
Relative to: not given
Reading: higher = stronger binding
Measurement: E-score
Residues (chain): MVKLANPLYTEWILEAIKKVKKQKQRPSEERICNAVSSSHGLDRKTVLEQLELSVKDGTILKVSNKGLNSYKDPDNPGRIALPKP
GAATACTC: 0.0169
CTTCCCCA: -0.148
AACCTTTA: -0.202
CCACTCTA: -0.164
GGGTGACC: 0.136
GCCACTTA: -0.203
ACCGCGGC: 0.443
ATATGCCG: 0.35
ACTCACAT: -0.267
AGGATGAT: -0.149
AATGGACC: -0.162
GTACTACA: -0.135
AGGCACAG: -0.232
AATCATAT: 0.0276
TCAATGAA: -0.209
TACAAGGA: -0.176
ATTGTGGG: -0.223
TGGCCCAA: -0.207
CGAGTTCC: -0.0528
CTGGCTTC: -0.0168
CCGTAGGC: 0.291
AGAGTTAG: -0.164
ACACCTGC: -0.0463
CATGATAA: -0.114
CTCCTTGA: -0.072

Sample 6
Target: Interferon regulatory factor 5, full length, phosphomimetic (IRF5, Homo sapiens, UniProt Q13568-2, residues 1-514, K96S/S451D/S453D/S456D/S462D)
Technique: protein-binding microarray
Molecule type: double-stranded DNA, one strand shown
Medium: in vitro
Tested at: 250 nM
Setting: 60-bp whole probe
With: salmon DNA 0.4 mg/ml
Relative to: random background probes
Reading: higher = stronger binding
Measurement: log fluorescence
All sequences stand within: GCCTAGCAC … GTCTTGATTCGCTTGACGCTGCTG
TTTTAAAATGGACACTGTACAGTGCTA: 0.289 z-score
GACTGTTTCGGTATCGGGACGTGCTAG: 9.96 z-score
AGTGATAACTTTTTTTTTTCGTGCTAG: 1.11 z-score
TCAGATGTCAAACTCACACTGTGCTAG: -0.0818 z-score
GACGGTTTCGGTTCCGGGTCGTGCTAG: 9.74 z-score
GACGGTCTCGGTTTCGTGACGTGCTAG: 1.19 z-score
TCATTTTTTTCCCTGAAACTGTGCTAG: 1.28 z-score
AAATCTAAAAAGTCTCTGGGAGTGCTA: 0.0462 z-score
TTAGGTCTCAGTTTCGGTTAGTGCTAG: 9.42 z-score
TCACCATTTTTTTTCACACTGTGCTAG: 1.28 z-score
TTAGAACTGGGGACTGGATTGGTGCTA: -0.174 z-score
TTAGGTTTCGGGACTGGTTTAGTGCTA: 6.69 z-score
GACGCTATCAGTCTCGAGACGTGCTAG: 1.69 z-score
TCATATATACACTTATGACTGTGCTAG: 0.524 z-score
CCTCTGCTCCTCTTTTTTTGGGTGCTA: 0.232 z-score
TCATTTTTCTGATTGAAACTGTGCTAG: 1.58 z-score
TCAATTTTCAGAATTTAACTGTGCTAG: 1.26 z-score
GTGTATATGTGATTAAAATAGTGCTAG: 0.4 z-score
TGAGGTATCGGGTTTCGGTTAGTGCTA: 7.71 z-score
GACGATCTGGGGACTGGAGACGTGCTA: -0.492 z-score
CAAGTTTCTCCTTTCGGAATGTGCTAG: 6.31 z-score
TCATAAATATCTTTGTTACTGTGCTAG: 0.711 z-score
GACGGTATCGGTTTCGGGATGTGCTAG: 8.87 z-score
ATTGCTTCCTCTTTACTGCTGTGCTAG: 0.676 z-score
GACGGTCTGGGACTGGGGACGTGCTAG: -0.624 z-score
